# Measurements of several laboratories.
# Parts stem from different laboratories: compare values within a part only.
# Chain of UniProt Q9UL54 (whole entry, looked up): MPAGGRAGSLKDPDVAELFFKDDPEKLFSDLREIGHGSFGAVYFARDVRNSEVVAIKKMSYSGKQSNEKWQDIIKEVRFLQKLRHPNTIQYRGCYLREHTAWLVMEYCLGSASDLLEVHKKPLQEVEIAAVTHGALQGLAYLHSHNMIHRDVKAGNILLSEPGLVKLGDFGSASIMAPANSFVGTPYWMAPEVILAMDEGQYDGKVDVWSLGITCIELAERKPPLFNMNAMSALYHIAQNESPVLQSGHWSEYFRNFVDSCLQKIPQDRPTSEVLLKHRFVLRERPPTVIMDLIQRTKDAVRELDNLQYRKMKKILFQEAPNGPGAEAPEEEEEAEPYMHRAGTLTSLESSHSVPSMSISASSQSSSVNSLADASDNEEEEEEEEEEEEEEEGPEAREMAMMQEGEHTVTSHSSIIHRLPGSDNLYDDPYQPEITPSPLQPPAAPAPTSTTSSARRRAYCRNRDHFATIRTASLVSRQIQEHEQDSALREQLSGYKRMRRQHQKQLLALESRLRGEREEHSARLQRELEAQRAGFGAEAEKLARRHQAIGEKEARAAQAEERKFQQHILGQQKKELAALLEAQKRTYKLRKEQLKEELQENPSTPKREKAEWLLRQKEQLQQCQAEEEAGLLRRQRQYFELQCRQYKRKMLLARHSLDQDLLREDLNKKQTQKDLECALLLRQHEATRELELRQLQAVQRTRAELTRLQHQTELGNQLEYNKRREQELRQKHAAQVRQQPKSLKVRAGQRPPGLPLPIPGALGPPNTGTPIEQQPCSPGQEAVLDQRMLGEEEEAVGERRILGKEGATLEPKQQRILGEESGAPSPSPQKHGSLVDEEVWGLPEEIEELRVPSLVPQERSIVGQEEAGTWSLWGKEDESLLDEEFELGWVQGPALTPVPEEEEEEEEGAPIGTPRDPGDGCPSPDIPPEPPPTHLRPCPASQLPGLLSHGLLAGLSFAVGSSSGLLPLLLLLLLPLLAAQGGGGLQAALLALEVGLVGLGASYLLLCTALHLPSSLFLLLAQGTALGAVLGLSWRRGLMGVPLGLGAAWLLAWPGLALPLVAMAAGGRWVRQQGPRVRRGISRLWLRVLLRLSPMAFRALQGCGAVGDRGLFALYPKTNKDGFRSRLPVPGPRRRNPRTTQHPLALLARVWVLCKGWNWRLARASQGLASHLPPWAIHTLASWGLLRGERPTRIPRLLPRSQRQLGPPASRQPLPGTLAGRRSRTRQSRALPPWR
# Chain of UniProt P27361 (whole entry, looked up): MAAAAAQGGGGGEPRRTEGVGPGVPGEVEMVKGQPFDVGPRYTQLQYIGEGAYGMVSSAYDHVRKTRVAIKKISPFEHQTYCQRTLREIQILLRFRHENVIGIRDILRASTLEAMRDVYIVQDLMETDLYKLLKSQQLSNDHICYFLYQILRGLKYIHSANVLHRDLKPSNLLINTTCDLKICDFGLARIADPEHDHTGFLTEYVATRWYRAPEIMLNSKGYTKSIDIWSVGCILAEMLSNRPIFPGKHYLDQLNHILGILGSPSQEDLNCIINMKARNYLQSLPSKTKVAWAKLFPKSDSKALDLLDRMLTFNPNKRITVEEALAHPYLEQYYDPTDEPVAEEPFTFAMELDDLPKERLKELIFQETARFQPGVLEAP
# Chain of UniProt Q04912 (whole entry, looked up): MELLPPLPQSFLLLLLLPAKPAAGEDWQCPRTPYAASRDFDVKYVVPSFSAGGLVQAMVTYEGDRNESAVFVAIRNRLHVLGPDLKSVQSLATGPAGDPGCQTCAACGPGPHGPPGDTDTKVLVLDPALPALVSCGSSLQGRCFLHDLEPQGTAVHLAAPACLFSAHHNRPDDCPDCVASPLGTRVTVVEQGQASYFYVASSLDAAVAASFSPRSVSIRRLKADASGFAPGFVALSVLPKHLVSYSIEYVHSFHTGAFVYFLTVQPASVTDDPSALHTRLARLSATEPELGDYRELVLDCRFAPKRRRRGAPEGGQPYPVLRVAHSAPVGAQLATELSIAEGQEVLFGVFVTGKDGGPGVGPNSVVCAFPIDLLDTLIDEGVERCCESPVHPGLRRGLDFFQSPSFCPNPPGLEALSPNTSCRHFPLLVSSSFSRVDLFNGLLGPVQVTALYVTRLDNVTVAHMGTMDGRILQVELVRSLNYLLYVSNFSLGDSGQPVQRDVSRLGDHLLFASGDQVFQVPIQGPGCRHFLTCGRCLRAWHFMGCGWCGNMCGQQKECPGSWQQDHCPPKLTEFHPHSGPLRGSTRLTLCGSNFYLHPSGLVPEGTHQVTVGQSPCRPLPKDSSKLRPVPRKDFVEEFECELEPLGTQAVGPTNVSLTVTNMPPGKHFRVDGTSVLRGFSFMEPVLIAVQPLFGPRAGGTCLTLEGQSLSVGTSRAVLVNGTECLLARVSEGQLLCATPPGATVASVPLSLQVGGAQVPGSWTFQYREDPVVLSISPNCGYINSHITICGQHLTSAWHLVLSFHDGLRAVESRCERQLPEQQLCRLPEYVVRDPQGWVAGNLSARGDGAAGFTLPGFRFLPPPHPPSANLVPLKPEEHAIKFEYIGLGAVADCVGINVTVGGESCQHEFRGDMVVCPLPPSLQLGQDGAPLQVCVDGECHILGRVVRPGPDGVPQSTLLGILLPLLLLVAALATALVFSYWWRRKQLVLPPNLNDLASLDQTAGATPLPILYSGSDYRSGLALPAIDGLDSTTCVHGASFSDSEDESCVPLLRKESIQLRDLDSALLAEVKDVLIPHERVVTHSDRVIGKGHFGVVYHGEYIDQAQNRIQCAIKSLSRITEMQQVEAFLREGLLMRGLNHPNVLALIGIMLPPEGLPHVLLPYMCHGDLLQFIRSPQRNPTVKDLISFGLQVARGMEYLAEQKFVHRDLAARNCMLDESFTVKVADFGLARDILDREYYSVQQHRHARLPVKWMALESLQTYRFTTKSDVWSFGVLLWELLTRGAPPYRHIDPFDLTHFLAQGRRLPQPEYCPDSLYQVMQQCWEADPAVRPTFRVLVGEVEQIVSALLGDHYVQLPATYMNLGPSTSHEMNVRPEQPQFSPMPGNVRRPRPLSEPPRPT
# Chain of UniProt O15111 (whole entry, looked up): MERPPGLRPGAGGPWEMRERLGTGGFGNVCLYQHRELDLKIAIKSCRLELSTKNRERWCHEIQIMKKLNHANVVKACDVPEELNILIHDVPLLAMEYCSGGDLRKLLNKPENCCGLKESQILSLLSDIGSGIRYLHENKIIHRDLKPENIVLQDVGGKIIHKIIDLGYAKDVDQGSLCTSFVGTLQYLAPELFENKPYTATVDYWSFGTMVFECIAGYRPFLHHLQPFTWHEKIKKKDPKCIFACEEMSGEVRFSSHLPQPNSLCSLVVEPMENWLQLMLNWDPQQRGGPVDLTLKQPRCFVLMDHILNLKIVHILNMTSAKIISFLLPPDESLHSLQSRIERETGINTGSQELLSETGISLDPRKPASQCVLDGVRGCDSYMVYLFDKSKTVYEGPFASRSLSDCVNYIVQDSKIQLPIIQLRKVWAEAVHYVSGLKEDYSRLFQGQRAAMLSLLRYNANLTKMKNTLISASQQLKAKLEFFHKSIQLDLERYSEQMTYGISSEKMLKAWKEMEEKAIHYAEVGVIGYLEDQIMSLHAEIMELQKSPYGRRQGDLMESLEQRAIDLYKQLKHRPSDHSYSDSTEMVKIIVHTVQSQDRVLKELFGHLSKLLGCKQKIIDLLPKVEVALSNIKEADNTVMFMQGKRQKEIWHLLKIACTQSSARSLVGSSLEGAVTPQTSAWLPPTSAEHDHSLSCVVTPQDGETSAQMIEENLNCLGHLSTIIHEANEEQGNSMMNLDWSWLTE
# Chain of UniProt P06239 (whole entry, looked up): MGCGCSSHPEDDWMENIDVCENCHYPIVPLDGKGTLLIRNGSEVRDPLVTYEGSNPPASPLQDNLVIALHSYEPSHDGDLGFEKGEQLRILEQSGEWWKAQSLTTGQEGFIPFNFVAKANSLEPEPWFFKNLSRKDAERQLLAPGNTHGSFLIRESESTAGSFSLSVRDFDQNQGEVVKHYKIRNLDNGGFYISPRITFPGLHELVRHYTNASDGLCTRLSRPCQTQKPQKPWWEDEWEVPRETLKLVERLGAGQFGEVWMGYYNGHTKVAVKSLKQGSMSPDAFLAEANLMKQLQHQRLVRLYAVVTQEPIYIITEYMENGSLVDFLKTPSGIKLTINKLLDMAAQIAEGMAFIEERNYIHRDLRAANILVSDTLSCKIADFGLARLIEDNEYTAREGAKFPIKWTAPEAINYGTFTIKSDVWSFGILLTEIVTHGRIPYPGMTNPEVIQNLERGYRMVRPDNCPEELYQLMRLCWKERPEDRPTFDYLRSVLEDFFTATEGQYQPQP

# Study 1
# Target: Runt-related transcription factor 3, Runt domain (RUNX3, Homo sapiens, UniProt Q13761, residues 53-186)
# Chain of UniProt Q13761 (53-186, looked up): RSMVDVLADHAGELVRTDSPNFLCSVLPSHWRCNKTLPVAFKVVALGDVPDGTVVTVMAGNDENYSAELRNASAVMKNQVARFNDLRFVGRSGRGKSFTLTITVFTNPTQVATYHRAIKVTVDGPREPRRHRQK
# Technique: protein-binding microarray
# Molecule type: hairpin DNA
# Sample: in vitro
# Concentration: not given
# Setting: whole hairpin DNA, median over replicate spots
# Reference: not given
# Reading: higher = stronger binding
Oligonucleotide,median fluorescence
GAGGCCTCTTGCGGTTGGCCTCCTGGCCAACCGCAAGAGGCCTCACACTC,8780 a.u.
GAGGCCTGTTGTGCGTGGCCTCCTGGCCACGCACAACAGGCCTCACACTC (5mC at 14 30),4810 a.u.
GAGGCCTGTCGCGGTTGGCCTCCTGGCCAACCGCGACAGGCCTCACACTC (5mC at 12),5440 a.u.
GAGGCCTGTTCTGGTTGGCCTCCTGGCCAACCAGAACAGGCCTCACACTC (5mC at 11),4610 a.u.
GAGGCCCACGCGCAACAGCCTCCTGGCTGTTGCGCGTGGGCCTCACACTC (5mC at 9 35),5240 a.u.
GAGGCCCAACCGCAACAGCCTCCTGGCTGTTGCGGTTGGGCCTCACACTC (5mC at 13),10200 a.u.
GAGGCCTGTCGCGGTTGGCCTCCTGGCCAACCGCGACAGGCCTCACACTC (5mC at 42),6430 a.u.
GAGGCCTGCCGCGGTTGGCCTCCTGGCCAACCGCGGCAGGCCTCACACTC,6000 a.u.

# Study 2
# Compound: CC(C)CC(=O)N1CCc2nc(-c3ccc(Br)cc3)nc(N(C)Cc3ccccc3)c2C1
# Concentration: 0.1 µM
target,read-out,technique,remaining binding [%]
"Serine/threonine-protein kinase WNK2 (WNK2, Homo sapiens, UniProt Q9Y3S1)",cell-free assay,competition with immobilised ligand,100
"Serine/threonine-protein kinase TAO2 (TAOK2, Homo sapiens, UniProt Q9UL54)",cell-free assay,competition with immobilised ligand,97
"Cyclin-dependent kinase 11A (CDK11A, Homo sapiens, UniProt Q9UQ88)",binding,competition with immobilised ligand,100
"Tyrosine-protein kinase Lck (LCK, Homo sapiens, UniProt P06239)",cell-free assay,competition with immobilised ligand,100
"Mitogen-activated protein kinase 15 (MAPK15, Homo sapiens, UniProt Q8TD08)",cell-free assay,competition with immobilised ligand,100
"Serine/threonine-protein kinase LATS1 (LATS1, Homo sapiens, UniProt O95835)",cell-free assay,competition with immobilised ligand,67
"Cyclin-dependent kinase 4 (CDK4, Homo sapiens, UniProt P11802)",cell-free assay,competition with immobilised ligand,93
"Mast/stem cell growth factor receptor Kit, autoinhibited (KIT, Homo sapiens, UniProt P10721)",cell-free assay,competition with immobilised ligand,100
"Serine/threonine-protein kinase PRP4 homolog (PRPF4B, Homo sapiens, UniProt Q13523)",cell-free assay,competition with immobilised ligand,100
"Receptor-type tyrosine-protein kinase FLT3 (FLT3, Homo sapiens, UniProt P36888, R834Q)",cell-free assay,competition with immobilised ligand,65
"LIM domain kinase 2 (LIMK2, Homo sapiens, UniProt P53671)",cell-free assay,competition with immobilised ligand,100
"Receptor-interacting serine/threonine-protein kinase 4 (RIPK4, Homo sapiens, UniProt P57078)",cell-free assay,competition with immobilised ligand,100
"Epidermal growth factor receptor (EGFR, Homo sapiens, UniProt P00533, del747-750/T751S)",cell-free assay,competition with immobilised ligand,100
"Myosin light chain kinase family member 4 (MYLK4, Homo sapiens, UniProt Q86YV6)",cell-free assay,competition with immobilised ligand,100
"AP2-associated protein kinase 1 (AAK1, Homo sapiens, UniProt Q2M2I8)",binding,,100
"Inhibitor of nuclear factor kappa-B kinase subunit alpha (CHUK, Homo sapiens, UniProt O15111)",cell-free assay,competition with immobilised ligand,100
"Dual specificity protein kinase CLK1 (CLK1, Homo sapiens, UniProt P49759)",cell-free assay,competition with immobilised ligand,100
"Ephrin type-A receptor 3 (EPHA3, Homo sapiens, UniProt P29320)",cell-free assay,competition with immobilised ligand,100

# Study 3
# Structure (SMILES): Cc1ccc(NC(=O)c2ccc(CN3CCN(C)CC3)cc2)cc1Nc1nccc(-c2cccnc2)n1
# Read-out: enzyme activity
# Action: inhibitor
# Concentration: 0.5 µM
# Reference: control
target,remaining activity [%]
"Activin receptor type-1B (ACVR1B, Homo sapiens, UniProt P36896)",104
"Macrophage-stimulating protein receptor (MST1R, Homo sapiens, UniProt Q04912)",84.7
"Serine/threonine-protein kinase TBK1 (TBK1, Homo sapiens, UniProt Q9UHD2)",96.7
"Tyrosine-protein kinase Mer (MERTK, Homo sapiens, UniProt Q12866)",91
"Serine/threonine-protein kinase Nek6 (NEK6, Homo sapiens, UniProt Q9HC98)",97.9
"Mitogen-activated protein kinase kinase kinase 5 (MAP3K5, Homo sapiens, UniProt Q99683)",101
"Serine/threonine-protein kinase TAO2 (TAOK2, Homo sapiens, UniProt Q9UL54)",104
"Wee1-like protein kinase (WEE1, Homo sapiens, UniProt P30291)",101
"Fibroblast growth factor receptor 3 (FGFR3, Homo sapiens, UniProt P22607)",97.4
"Mitogen-activated protein kinase 3 (MAPK3, Homo sapiens, UniProt P27361)",102
"Ribosomal protein S6 kinase alpha-2 (RPS6KA2, Homo sapiens, UniProt Q15349)",98
"Dual specificity mitogen-activated protein kinase kinase 2 (MAP2K2, Homo sapiens, UniProt P36507)",96.6
"Serine/threonine-protein kinase A-Raf (ARAF, Homo sapiens, UniProt P10398)",95

# Study 4
# Target: Interferon regulatory factor 7, full length, phosphomimetic (IRF7, Homo sapiens, UniProt Q92985, residues 1-503, S101K/S471D/S472D/S475D/S476D/S477D/S483D/S484D/S487D)
# Chain of UniProt Q92985 (whole entry, unmodified, looked up): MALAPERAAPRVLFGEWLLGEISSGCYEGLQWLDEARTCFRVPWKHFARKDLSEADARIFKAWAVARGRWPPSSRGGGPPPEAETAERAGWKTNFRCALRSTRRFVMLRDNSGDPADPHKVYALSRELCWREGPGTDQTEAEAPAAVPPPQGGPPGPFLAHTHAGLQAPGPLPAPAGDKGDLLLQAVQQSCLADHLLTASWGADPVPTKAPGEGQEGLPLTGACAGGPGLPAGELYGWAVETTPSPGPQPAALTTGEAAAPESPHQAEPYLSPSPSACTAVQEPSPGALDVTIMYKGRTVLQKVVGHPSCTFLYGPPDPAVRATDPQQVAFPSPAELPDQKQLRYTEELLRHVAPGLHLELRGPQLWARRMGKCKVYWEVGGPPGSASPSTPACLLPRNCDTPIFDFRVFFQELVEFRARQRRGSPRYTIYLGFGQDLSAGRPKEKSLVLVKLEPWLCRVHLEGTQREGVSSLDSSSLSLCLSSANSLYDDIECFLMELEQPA
# Technique: protein-binding microarray
# Molecule type: double-stranded DNA, one strand shown
# Sample: in vitro
# Concentration: 250 nM
# Setting: 60-bp whole probe
# Together with: salmon DNA 0.4 mg/ml
# Reference: random background probes
# Reading: higher = stronger binding
# Constant ends, left off below: GCCTAGCAC … GTCTTGATTCGCTTGACGCTGCTG
Oligonucleotide,log fluorescence
TTAGAAATCAGACTGGATTAGTGCTAG,-0.192 z-score
TCAGAATTACCTCTGGAACTGTGCTAG,-0.456 z-score
TCACGGATGATCTCTCTGACTGTGCTA,-0.916 z-score
GACGGTATCTTTCTCCTGACGTGCTAG,0.108 z-score
TTAGAACTGAGTATCGACTAGTGCTAG,-0.0107 z-score
TCAGGTGTCTTTTGTGGAACTGTGCTA,-0.6 z-score
TTAGGACTACTTATCCTTTAGTGCTAG,0.517 z-score
GGCGGACTGCTACTGCTGACGTGCTAG,-1.14 z-score

# A few entries again (study 4):
Oligonucleotide,log fluorescence
TCAGAATTACCTCTGGAACTGTGCTAG,-0.456 z-score
TCACGGATGATCTCTCTGACTGTGCTA,-0.916 z-score
GGCGGACTGCTACTGCTGACGTGCTAG,-1.14 z-score
GACGGTATCTTTCTCCTGACGTGCTAG,0.108 z-score
TCAGGTGTCTTTTGTGGAACTGTGCTA,-0.6 z-score
TTAGAAATCAGACTGGATTAGTGCTAG,-0.192 z-score
TTAGGACTACTTATCCTTTAGTGCTAG,0.517 z-score
TTAGAACTGAGTATCGACTAGTGCTAG,-0.0107 z-score
